Assay results pooled from the literature.
Parts stem from different laboratories: compare values within a part only. Positions count from the first letter of the parent shown.

Sample 1
Target: RNA binding protein fox-1 homolog 2, RRM domain, GST-SBP tag (RBFOX2, Homo sapiens, UniProt O43251-10, residues 100-194)
Method: RNA Bind-n-Seq
Molecule type: RNA
Sample: in vitro
Concentration: 365 nM
Setting: natural RNA segment, single round, ends assumed
Reference: no-protein control
Reading: higher = stronger binding
Constant ends, left off below: GGGAGUUCUACAGUCCGACGAUC … UGGAAUUCUCGGGUGCCAA
Construct (chain): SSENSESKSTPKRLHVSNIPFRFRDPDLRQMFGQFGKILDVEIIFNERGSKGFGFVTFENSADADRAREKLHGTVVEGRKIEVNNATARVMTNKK
| Oligonucleotide | RBNS enrichment (R) |
| --- | --- |
| UGCCAGUGAAGCCUCCAACCCUAAGCCACUGGGACGGUGGCCAGAGAUGCCAGCAGCCUCUGUCGCCCUUAGUCAUAUAACCAAAAUCCAGACCUUAUCCACAACCCGGG | 0.63 |
| AAAAGCAAAAAACGUGAGGUUGGGACUCAGUAGGUGAGGGUGCUUGCAGCCAAACCUGAUGACCUGCAUUCAAUUCCUGGGUCCCACGGGACAGAGGGAGAGAGUCCACU | 0.287 |
| UUAGCAAGCUCUUUGUGCAGAUGGGGAUGUAGGUAAAUCUUUUUAAAAGUGAAAUUAACCUCCUGCCAAUUUUACAACCCAAGAAUUUUUUUUUAAGGGCCUUGGAGCCA | 0.392 |
| GGAGGCCACAAUGCCAAGGUUCCCUAGUGUGUUUUUCUUUGUUGGUUCUUAAAAUUAUCAACCUUUGUUACGGAUGGGCCUCCACUAGGUGGCUGUGGGUAAAGUCUUGG | 0.553 |
| AAAAUUGGAACUCUACUCAACCCAUUGUUGUCAAGGAAGAAGAAAUCUUUCUCCCUCAACUGAAGGGGUGCACCCACCUGUUUUCUGAAACACACGAGCAAACCCAGAGG | 0.371 |
| CGCCAUCUUCCUGGACAGAGUGAGCUGUCAGUCACUCCCCAGGUUUUUUUUGUUUUUGGGGUUUUUUUUUUUUUGUACCAAGUAGCUAGAAAGUGGGACCUAGGGCCCUG | 1.55 |
| AUGCUGUCUCUGGCUGGGCCUUGGGGACACUUGCCACAUGGGUCCCAAAUGGCUGGGCAAGGGUGACCUUGAUUCACACACCACAGCCUCCCCUUGAGUGAUGGAAGGUG | 0.334 |
| CCUAAGGCCCUGCUGUCUGCCGAGGAGCGCCAAGAAGAUGUCACUUGUUUACACACGAACUGCCACAUCCCCAAGCUCCGUUCUUGCCCCUCGUGUCCUAGGCCCAACCC | 1.55 |
| GUGUACCUGCUGGAAGAAUUCUAGCAUGCUACUUGGGGACAUAAUUUCAGUGGGAAAUAUGCCACUGACCGAUUUUUUUUUUUUCCUCUUUGCAGUGGGGCUAGGACAGU | 8 |
| CUGAAAAAUACAAGGGCUGUUGGUGAGAGCAGACUUGAGGUGAUGAUAGUUGGCCUCUGGUCUACAAAGAUUUCAUAACUCCUUGGAAAGCUUCUUAUAAUCAUUCUUAA | 0.601 |
| CUUAGGAACGAAAUUGUGCCCAGCCAGAAAGAAUGCUGGCUCAUAAUAGAUUCUUACCCAAUGCCACUGUCAGUAUCCCAGGUAGUGAAAUUCUUAAAGUGGUGGGGUAU | 0.857 |
| UAUACAGUGAAGACAAACCAAAUACUUUUCACCAUUGAACUAUCUGUACAUUAUCUUUGGUAACACUAGACUAGUGUAGUCUUGGGGAACACACCGAGGAAACAUGUAGC | 0.361 |

Sample 2
Target: MAFF, bZIP domain (human)
Method: DHFR protein complementation
Sample: yeast
Setting: single substitutions, most at no-binding floor
Reference: wild-type JUN-FOS pair
Reading: higher = stronger binding
Parent: JUN, bZIP domain (human); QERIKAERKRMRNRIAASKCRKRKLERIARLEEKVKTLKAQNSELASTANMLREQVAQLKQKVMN; partner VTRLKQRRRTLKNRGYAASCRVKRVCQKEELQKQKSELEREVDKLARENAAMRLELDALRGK
| Substitution | binding fitness [natural log] |
| --- | --- |
| K39L | -1.44 |
| E32M | -1.51 |
| T48W | -1.28 |
| V35L | -1.51 |
| L52Y | -1.48 |
| L59T | -1.65 |
| L31V | -1.44 |
| A46Q | -1.26 |
| S47G | -1.46 |
| R30E | -1.41 |
| K39D | -1.45 |
| Q41M | -1.43 |
| R30V | -1.36 |
| K34E | -1.47 |
| Q55P | -1.53 |
| S47Y | -1.26 |
| T48A | -1.45 |
| N42R | -0.526 |
| A57K | -1.55 |
| A57M | -1.36 |
| K36M | -1.58 |
| R30H | -1.3 |
| Q55T | -1.55 |
| V56T | -1.5 |
| A40T | -1.36 |

Sample 3
Target: Fragile X messenger ribonucleoprotein 1, C-terminal low-complexity region (Fmr1, Mus musculus, UniProt P35922)
Method: RNA Bind-n-Seq
Molecule type: RNA
Sample: in vitro
Concentration: 200 nM
Setting: whole 134-nt RNA, ends assumed
With: 150 mM LiCl
Reference: input library
Reading: higher = stronger binding
Each molecule: 7-deaza-guanosine replaces G
Constant ends, left off below: GGGAGUUCUACAGUCCGACGAUC … UGGAAUUCUCGGGUGUCAAGG
| Oligonucleotide | log2 enrichment |
| --- | --- |
| CAAGUCCUGUGCUACACAUCGUAUGUACCGAAUCGGAGGAAAAAAAGGAAAAAGGAAAGUAUUAUGUUACGCCGUUCGGAUCUGCACUUC | -0.312 |
| UAACUUUAGAGGAGGAUCUGAUGGAUAUGGCAGUGGACGUGGAUUUGGGGAUGGCUAUUAUGGGUAUGGAGGAGGACCUGGAGGUGGCAA | 0.358 |
| UCCUGUGCUACACAUCGUAUGUACCGAAUCGGGAAAAAGGGUUUUUUUGGGAAAAAGGGAAAGUAUUAUGUUACGCCGUUCGGAUCUGCA | -1.86 |
| CAAGUCCUGUGCUACACAUCGUAUGUACCGAAUCGGAAAAGGGAAAAGGAAAAGGAAAGUAUUAUGUUACGCCGUUCGGAUCUGCACUUC | -0.872 |
| UCCUCAAGUCCUGUGCUACACAUCGUAUGUACCGAAUCGGGAGGAGGAGGGGAAAGUAUUAUGUUACGCCGUUCGGAUCUGCACUUCCAG | -0.918 |
| CCCAGACAACACGCACCCACACAGACACAGAGGGAAGGGGUUGGGAUGGGGACAGGGUGCACAGCAGGGCGGGGUAGGACCCCAGCCCCU | -1.54 |
| CACAGACAACACGCACCCACACAGAUACAGAGGGAAGGGGUUGGGAUGGGGACAGGGUGCACAGCAGGGCGGGGUAGGACCCCAGCCCCU | 0.633 |
| CAAGUCCUGUGCUACACAUCGUAUGUACCGAAUCGGGGAAAGGGGAAAGGGAAAGGAAAGUAUUAUGUUACGCCGUUCGGAUCUGCACUU | -0.663 |
| UCCUGUGCUACACAUCGUAUGUACCGAAUCGGGGAAAAAGGGGAAAAAAAGGGGUGGGGAAAGUAUUAUGUUACGCCGUUCGGAUCUGCA | -0.544 |
| UCAAGUCCUGUGCUACACAUCGUAUGUACCGAAUCGGCCCGGCCCGGGGCCCGGAAAGUAUUAUGUUACGCCGUUCGGAUCUGCACUUCC | -1.06 |
| GUCCUGUGCUACACAUCGUAUGUACCGAAUCGGCCCCCCGGGCCCCCCGGGCCCCCCGGAAAGUAUUAUGUUACGCCGUUCGGAUCUGCA | 0.415 |

Sample 4
Target: UBE2Q2 UBC core domain (UniProt Q8WVN8)
UniProt Q8WVN8, sequence (whole entry, looked up): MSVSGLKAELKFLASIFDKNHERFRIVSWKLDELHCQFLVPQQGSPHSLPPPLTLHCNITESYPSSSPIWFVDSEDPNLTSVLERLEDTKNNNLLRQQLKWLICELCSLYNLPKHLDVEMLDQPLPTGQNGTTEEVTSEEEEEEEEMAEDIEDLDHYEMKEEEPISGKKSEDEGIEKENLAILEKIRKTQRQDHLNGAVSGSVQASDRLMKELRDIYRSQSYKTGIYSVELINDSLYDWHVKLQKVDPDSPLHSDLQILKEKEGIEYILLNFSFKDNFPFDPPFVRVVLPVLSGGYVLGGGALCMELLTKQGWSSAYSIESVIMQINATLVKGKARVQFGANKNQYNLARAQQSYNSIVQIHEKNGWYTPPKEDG
Method: yeast two-hybrid
Sample: yeast
Setting: mostly zero background
Reference: not given
Reading: higher = stronger interaction
B1: TRIM15 RING domain (UniProt Q9C019); chain SLKVVHELPACTLCAGPLEDAVTIPCGHTFCRLCLPALSQMGAQSSGKILLCPLCQEEEQAETPMA
B2: RNF150 RING domain (UniProt Q9ULK6); chain DKETESDFDNCAVCIEGYKPNDVVRILPCRHLFHKSCVDPWLLDHRTCPMCKMNILKALGIP
B3: TRIM3 RING domain (UniProt O75382); chain VQPMDKQFLVCSICLDRYQCPKVLPCLHTFCERCLQNYIPAQSLTLSCPVCRQTSILPEQGV
B4: PEX2 RING domain (UniProt P28328); chain DNTLATSGKECALCGEWPTMPHTIGCEHIFCYFCAKSSFLFDVYFTCPKCGTEVHSLQPLK
B5: TRIM55 RING domain (UniProt Q9BYV6); chain TMDNLEKQLICPICLEMFTKPVVILPCQHNLCRKCASDIFQASNPYLPTRGGTTMASGGRFRCPSCRHEVVLDRHG
B6: RNF112 RING domain (UniProt Q9ULX5); chain QPMAPRELPTCSICLERLRDPISLDCGHDFCIRCFSTHRLPGCEPPCCPECRKICKQKRGLR
B7: ANKIB1 RING domain (UniProt Q9P2G1); chain LSPGDLDTSLCDICMCSISVFEDPVDMPCGHDFCRGCWESFLNLKIQEGEAHNIFCPAYDCFQLVPVDIIE
B8: RNF32 RING domain (UniProt Q9H0A6); chain SLLQGDSVQPCPICKEEFELRPQVLLSCSHVFHKACLQAFEKFTNKKTCPLCRKNQYQTRVIH
B9: RNF4 RING domain (UniProt P78317); chain TGLRPSGTVSCPICMDGYSEIVQNGRLIVSTECGHVFCSQCLRDSLKNANTCPTCRKKINHKRYHP
B10: RNF5 RING domain (UniProt Q99942); chain ERGGAGATFECNICLETAREAVVSVCGHLYCWPCLHQWLETRPERQECPVCKAGISREKVVP
B11: TRIM10 RING domain (UniProt Q9UDY6); chain SVTSLADEVNCPICQGTLREPVTIDCGHNFCRACLTRYCEIPGPDLEESPTCPLCKEPFRPGSFRP
| Sequence | lacZ reporter activity |
| --- | --- |
| B1 (TRIM15 RING domain) | 0 |
| B2 (RNF150 RING domain) | 0 |
| B3 (TRIM3 RING domain) | 0 |
| B4 (PEX2 RING domain) | 0 |
| KRQCSDVDDICSICQAEFQKPILLICQHIFCEECMTLWFNREKTCPLCRTVISDHINKW (RNFT1 RING domain (UniProt Q5M7Z0)) | 0 |
| B5 (TRIM55 RING domain) | 0 |
| B6 (RNF112 RING domain) | 0 |
| B7 (ANKIB1 RING domain) | 0 |
| QLQDEEDDSLCRICMDAVIDCVLLECGHMVTCTKCGKRMSECPICRQYVVRAVHVF (RNF34 RING domain (UniProt Q969K3)) | 0 |
| LKQVSIRENCCSLCCDEVADTQLKPCGHSDLCMDCALQLETCPLCRKEIVSRIRQI (RSPRY1 RING domain (UniProt Q96DX4)) | 0 |
| B8 (RNF32 RING domain) | 0 |
| B9 (RNF4 RING domain) | 0 |
| B10 (RNF5 RING domain) | 0 |
| B11 (TRIM10 RING domain) | 0 |

Sample 5
Target: ABI1, truncated, D143A, DHFR fusion (Arabidopsis thaliana)
Method: DHFR PCA, deep sequencing
Sample: yeast
Setting: methotrexate growth selection, single substitutions
With: (+)-ABA 0.0091 µM
Reference: wild-type fitted maximum
Reading: higher = stronger binding
Parent: PYL1, truncated, DHFR fusion (Arabidopsis thaliana); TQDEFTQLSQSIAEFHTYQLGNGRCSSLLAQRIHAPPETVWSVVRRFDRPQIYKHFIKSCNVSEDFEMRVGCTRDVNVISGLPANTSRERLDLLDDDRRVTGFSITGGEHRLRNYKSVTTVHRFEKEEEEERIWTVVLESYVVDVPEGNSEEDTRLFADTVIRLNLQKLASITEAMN; partner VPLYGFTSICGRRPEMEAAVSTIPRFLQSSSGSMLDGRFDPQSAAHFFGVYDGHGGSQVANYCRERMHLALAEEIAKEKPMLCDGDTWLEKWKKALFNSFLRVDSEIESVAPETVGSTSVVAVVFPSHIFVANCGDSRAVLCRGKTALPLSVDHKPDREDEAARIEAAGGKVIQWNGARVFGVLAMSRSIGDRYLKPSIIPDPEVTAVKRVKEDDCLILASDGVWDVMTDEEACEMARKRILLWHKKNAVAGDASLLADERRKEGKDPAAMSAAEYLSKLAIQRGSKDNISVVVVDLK
| Substitution | relative binding score |
| --- | --- |
| Y53I | 3.3% |
| S140A | 2.9% |
| F56P | -6.23% |
| L93F | 6.08% |
| F124E | 6.14% |
| E4R | -0.422% |
| S27I | -0.0335% |
| R163E | 10% |
| S26G | 18.4% |
| T86N | 21.1% |
| R45T | 7.02% |
| E151H | 19.6% |
| K126M | 44.8% |
| V142A | 22.7% |
| T39V | 53.7% |
| T119N | -8.76% |
| E139P | -7.05% |
| H34A | 37.3% |
